Experimental data collected from several papers.
Protocols differ between the studies behind these lines. ± gives the spread as reported.

`C[C@@H]1CC[C@@H]([C@@](O)(COCc2ccccc2)Cn2cnc3ccccc32)[C@H](OCc2ccccc2)C1` gave an inhibition of 83% (A2780; cell growth or viability, MTT; 10 µM, 72 h).
`CCC(=CCc1c(O)cc2c(c1O)C(=O)CC(c1cccc(O)c1)O2)CC` (stereo not shown) has an inhibition of 16.3% (HeLa; cell growth or viability, MTT; 6.25 µM, 48 h).
`CC(=O)N1CCC[C@H]1C(=O)N[C@H](C(=O)NCC(=O)N[C@@H](CC(=O)O)C(=O)COC(=O)c1c(C)cccc1C)C(C)(C)C` gave a cell lysis of 37.1% (THP-1 cells, LPS-primed; pyroptosis, LDH release; 25 µM, LPS 1 µg/mL, 4 h, together with: nigericin 5 µM, 2 h).
Under “total PARP level”, `O=S(=O)(N[C@H]1CCO[C@@H](C2c3ccc(F)cc3CCc3cc(F)ccc32)C1)c1ccc(OC(F)(F)F)cc1` is recorded as “decreased” (D341; immunoblot; concentration not given, 72 h).
For `CCCS(=O)(=O)NC12CCCC(C)(CCC3C1CC3(C)C)C2` (stereo not shown), the inhibition was 48.6% (HT-29; cell growth or viability, CCK-8; 50 µM).
For `Cc1ncsc1-c1ccc(C(C)NC(=O)C2CC(O)CN2C(=O)C(NC(=O)CCCCCCCCCCN2CCCC(Nc3ncc(Cl)c(Nc4ccccc4S(=O)(=O)C(C)C)n3)C2)C(C)(C)C)cc1` (stereo not shown), “log2 fold change” read -1.55 (22Rv1; RNA-seq, refers to: NKX3-1; concentration not given; relative to: DMSO).
For `COc1ccccc1-c1ccncc1C(=O)Nc1nnc(OCc2ccc(Cl)cc2)s1`, the colony survival was 43.5% (MDA-MB-436 BRCA1-mutant; colony formation; 3 µM; relative to: vehicle (DMSO)).
With `COc1cc(N2CCN(C(=O)CN)CC2)ccc1Nc1ncc(Cl)c(Nc2ccccc2P(C)(C)=O)n1` the viability was 76% (NCI-H3122; CCK-8; 25 nM, 48 h).
`CN1CCCNC(=O)c2cccc(c2)C(=O)NCCCN(C)CCCNc2cccc3c2C(=O)c2cccc(c2C3=O)NCCC1`: “log2 fold change” -1.3 (SAS; RNA-Seq, refers to: PPP2R3A mRNA; 1 µM, 6 h; relative to: untreated cells).
`CC(C)C[C@@H](NC(=O)[C@H](C)NC(=O)CNC(=O)[C@@H](NC=O)C(C)C)C(=O)N[C@@H](C)C(=O)N[C@@H](C(=O)N[C@H](C(=O)N[C@@H](C(=O)N[C@@H](Cc1c[nH]c2ccccc12)C(=O)N[C@H](CC(C)C)C(=O)N[C@@H](Cc1c[nH]c2ccccc12)C(=O)N[C@H](CC(C)C)C(=O)N[C@@H](Cc1c[nH]c2ccccc12)C(=O)N[C@H](CC(C)C)C(=O)N[C@@H](Cc1c[nH]c2ccccc12)C(=O)NCCO)C(C)C)C(C)C)C(C)C`: “cells in G1 phase” 65.4 ± 0.79% (MCF7; flow cytometry; 500 nM, 48 h).
`CC(C)C[C@H](NC(=O)[C@@H]1CCCN1C(=O)[C@H](CCCCN)NC(=O)[C@@H](N)CO)C(=O)N1CCC[C@H]1C(=O)N[C@@H](CCC(=O)O)C(=O)N[C@H](C(=O)N[C@H](C(=O)N[C@@H](CC(=O)O)C(=O)N[C@@H](CCC(=O)O)C(=O)N[C@@H](Cc1ccc(O)cc1)C(=O)NCC(=O)NCCOCCOCCOCCOCCOCCOCCOCCOCCOCCOCCOCCOCCOCCOCCOCCOCCOCCOCCOCCOCCOCCOCCOCCOCCC(=O)N[C@@H](CCCCNC(=O)CC[C@H](C(=O)O)N1CCN(CC(=O)O)CCN(CC(=O)O)CC1)C(=O)N1CCN(CCCN(C)c2ccc3nccc(C(=O)NCC(=O)N4CC(F)(F)C[C@H]4C#N)c3c2)CC1)[C@@H](C)O)C(C)C` has a Kd of 10 nM (MRC5; cell binding, flow cytometry; 4 °C).
`C=CCc1c(O)cc2c(c1O)C(=O)CC(c1ccc(O)cc1)O2` (stereo not shown) has an inhibition of 1.91% (HeLa; cell growth or viability, MTT; 6.25 µM, 48 h).
Under “log2 fold change”, `Cn1ncc2cc(-c3cncc(Cl)c3N3CCC4(CCNC4=O)CC3)ccc21` is recorded as 1.12 (LS174T; gene expression, microarray, refers to: KANK1 mRNA; concentration not given, 4 h; relative to: untreated cells).
With `CC[C@H](C)[C@H](NC(=O)[C@H](CCC(=O)O)NC(=O)[C@H](Cc1ccc(I)cc1)NC(C)=O)C(=O)N[C@@H](CC(=O)O)C(=O)COC(=O)c1c(C)cccc1C` the cell lysis was 88.5% (THP-1 cells, LPS-primed; pyroptosis, LDH release; 25 µM, LPS 1 µg/mL, 4 h, together with: nigericin 5 µM, 2 h).
For `COc1cccc(Nc2cc(=O)oc3ccccc23)c1`, “calcium mobilisation signal” read 10.8 ± 2.07 (COS-7 (untransfected); 500 µM, unit not given; relative to: 3 µM ionomycin).
`N#C[C@@H]1CCCN1C(=O)CNC(=O)c1ccnc2ccc(OCCCN3CCN(C(=O)CCc4ccc5c(c4)CN4CCN(Cc6cc(CCC(=O)O)ccc6O)CC(=O)[O][Al-]([18F])([O]C(=O)C4)[O]5)CC3)cc12` (stereo partly shown) has an internalized fraction of 72.5 ± 4.6% (HT1080 cells expressing human FAP; 120 min, 37 °C).
For `CC12CCCC(NS(=O)(=O)c3ccc(O)cc3)(C1)C1CC(C)(C)C1CC2` (stereo not shown), the inhibition was 99.5% (HT-29; cell growth or viability, CCK-8; 50 µM).
`COc1ccc2c(c1)c(CC(=O)[Se]CC(=O)Nc1cccc(C(F)(F)F)c1)c(C)n2C(=O)c1ccc(Cl)cc1` gave a TGI of 3560 nM (NCI60 NSCLC subpanel mean; cell growth).
With `CNS(=O)(=O)Nc1nccc(Cc2c(C)c3ccc(Oc4ncccc4F)cc3oc2=O)c1F` the IC50 was over 1000 nM (NCI-H196; cell viability; 7 days).

For quick reference, copied from above:
For `CC12CCCC(NS(=O)(=O)c3ccc(O)cc3)(C1)C1CC(C)(C)C1CC2` (stereo not shown), the inhibition was 99.5% (HT-29; cell growth or viability, CCK-8; 50 µM).
`COc1ccc2c(c1)c(CC(=O)[Se]CC(=O)Nc1cccc(C(F)(F)F)c1)c(C)n2C(=O)c1ccc(Cl)cc1` gave a TGI of 3560 nM (NCI60 NSCLC subpanel mean; cell growth).
With `CNS(=O)(=O)Nc1nccc(Cc2c(C)c3ccc(Oc4ncccc4F)cc3oc2=O)c1F` the IC50 was over 1000 nM (NCI-H196; cell viability; 7 days).
